Assay results gathered from unrelated publications.
Protocols differ between the studies behind these lines. Several values in a cell are separate wells, animals, samples, runs or records. ± marks the error that the study gave.
Rab GDP dissociation inhibitor beta with Rab1A: Rab GDP dissociation inhibitor beta, with Rab1A (Homo sapiens, UniProt P50395)
Voltage-dependent P/Q-type calcium channel subunit alpha-1A: Voltage-dependent P/Q-type calcium channel subunit alpha-1A (Homo sapiens, UniProt O00555)

SMILES = Cn1cc(-c2ccc(-c3cncc(Cl)c3N3CCC4(CCNC4=O)CC3)cc2)cn1; target or system = COLO 205; assay = gene expression, microarray, measured: CDC20 mRNA; conditions = concentration not given, 2 h; how to read = baseline: untreated cells; endpoint = log2 fold change; result = -1.82
SMILES = Cc1cc(C)cc(COc2cc3c(cc2OCc2cc(C)cc(C)c2)[C@H]2C[C@](O)(Cc4cn(Cc5cccc6ccccc56)nn4)C[C@H](C)N2CC3)c1; target or system = Rab GDP dissociation inhibitor beta with Rab1A; assay = GDI2-Rab1A interaction, inhibitor, NanoLuc complementation; conditions = 6.25 µM; endpoint = inhibition; result = 88.8%
SMILES = CC(=O)Oc1ccccc1C(=O)O; target or system = Voltage-dependent P/Q-type calcium channel subunit alpha-1A; assay = ion current, antagonist; system = HEK293; conditions = 10 µM; endpoint = inhibition; result = 11%
SMILES = COc1cc2ncnc(Nc3ccc(Oc4ccccc4)cc3C)c2cc1OC; target or system = Tyrosine-protein kinase Lyn, isoform B (LYN, Homo sapiens, UniProt P07948); assay = kinase activity, inhibitor; conditions = 1 µM; endpoint = inhibition; result = 92%
SMILES = Cc1cc(C)cc(COc2cc3c(cc2OCc2cc(C)cc(C)c2)[C@H]2C[C@](O)(Cc4cn(Cc5ccc(S(C)(=O)=O)cc5)nn4)C[C@H](C)N2CC3)c1; target or system = Rab GDP dissociation inhibitor beta with Rab1A; assay = GDI2-Rab1A interaction, NanoLuc complementation; conditions = 6.25 µM; endpoint = inhibition; result = 86.3%
SMILES = Cc1nc(NC(=O)N2CCCC2)sc1-c1csc(C(C)(C)C)n1; target or system = PIK3CA (Homo sapiens, UniProt P42336); assay = enzyme activity, inhibitor, Kinase-Glo luminescence; conditions = 3 µM; endpoint = inhibition; result = 42%
SMILES = CCCN1CCCC[C@H]1C(=O)Nc1c(C)cccc1C; target or system = Voltage-dependent P/Q-type calcium channel subunit alpha-1A; assay = ion current, antagonist; system = HEK293; conditions = 3 µM; endpoint = inhibition; result = 14%
SMILES = CCc1oc2ccccc2c1C(=O)c1cc(Br)c(O)c(Br)c1; target or system = SLC22A12 (Homo sapiens, UniProt Q96S37, F360A); assay = urate uptake; system = HEK293T; conditions = 0.5 µM, 10 min, 37 °C, added: 200 µM [14C]urate; endpoint = inhibition; result = 45% and 100% and 55% and 44.7% and 95.9%
SMILES = CCCN(CCC)CCc1cccc2c1CC(=O)N2; target or system = Voltage-dependent P/Q-type calcium channel subunit alpha-1A; assay = ion current, antagonist; system = HEK293; conditions = 10 µM; endpoint = inhibition; result = 5%
SMILES = Cc1cc(-c2ccnc3[nH]cc(F)c23)cc(F)c1[C@@]1(O)[C@H](C)CN(C(=O)CN)C[C@@H]1C; target or system = STK38L (Homo sapiens, UniProt Q9Y2H1); assay = ATP probe binding, KiNativ, measured: Lys2 site; system = HEK293T cell lysate; conditions = 1 µM; endpoint = inhibition; result = 1.2%
SMILES = Cc1cc(CN)cc(C)c1NC(=O)c1ccc(-c2cc(Cl)ccc2Cl)o1; target or system = Toxoplasma gondii; assay = parasite growth; system = HFF, bradyzoite, glutamine-induced; endpoint = EC90; result = 21.6 µM
SMILES = CC[C@H]1[C@@H](O)[C@@H]2[C@H](CC[C@]3(C)[C@@H]([C@H](C)CCNC(=O)NS(=O)(=O)c4ccc(C(C)(C)C)cc4)CC[C@@H]23)[C@@]2(C)CC[C@@H](O)C[C@@H]12; target or system = ABCB1 (Homo sapiens, UniProt P08183); system = human, plasma; conditions = dose not given, mean, alone; endpoint = Cmax; result = 33.2 ng/mL
SMILES = CN(C)CCCN1c2ccccc2Sc2ccc(Cl)cc21; target or system = Voltage-dependent P/Q-type calcium channel subunit alpha-1A; assay = ion current, antagonist; system = HEK293; conditions = 3 µM; endpoint = inhibition; result = 46%
SMILES = Cc1cc(Nc2ccc(S(F)(F)(F)(F)F)cc2)n2nc(C(C)(F)F)nc2n1; target or system = Plasmodium falciparum; system = P. falciparum malaria patients; conditions = oral, 250 mg; endpoint = patients with any adverse event; result = 63.6%
SMILES = CC[C@@H]1[C@H](F)C(=O)N[C@@H]1COc1nccc2cc(C(N)=O)c(OC)cc12; target or system = TLK2 (Homo sapiens, UniProt Q86UE8); assay = ATP-site probe binding, ActivX profiling; system = THP-1 cell lysate; conditions = 0.04 mM, Lys1 site; endpoint = inhibition; result = 2.6%
SMILES = O=C(NO)c1ccc(CN2CCCCc3ccccc32)c(F)c1; target or system = ADRA2C (Homo sapiens, UniProt P18825); assay = radioligand binding, PDSP radioligand binding; conditions = 10 µM; endpoint = inhibition; result = -8.95%
SMILES = [2H]c1cc(C)c(NC(=O)c2cnc(Nc3cc(N4CCC(O)CC4)nc(C)n3)s2)c(Cl)c1; target or system = EPHA1 (Homo sapiens, UniProt P21709); conditions = 0.001 µM; endpoint = inhibition; result = > 50%
SMILES = CC(C)C[C@H](NC(=O)C[C@H](O)[C@H](CC(C)C)NC(=O)[C@H](Cc1c[nH]cn1)NC(=O)CNC(=O)[C@@H](NC(=O)[C@H](C)NC(=O)[C@H](Cc1c[nH]c2ccccc12)NC(=O)[C@H](CCC(N)=O)NC(=O)[C@@H](Cc1ccccc1)NC(=O)COCCOCCNC(=O)CCC(C(=O)O)N1CCN(CC(=O)O)CCN(CC(=O)O)CCN(CC(=O)O)CC1)C(C)C)C(N)=O (stereo partly shown) [lutetium-177 labelled]; system = female BALB/c nu/nu mice, muscle; conditions = intravenous, 100 pmol, 4 h, added: PA 300 µg; endpoint = tissue uptake; result = 0.03 ± 0.01 %ID/g
SMILES = O=C1NCCN1CCN1CCC(c2cn(-c3ccc(F)cc3)c3ccc(Cl)cc23)CC1; target or system = Voltage-dependent P/Q-type calcium channel subunit alpha-1A; assay = ion current, antagonist; system = HEK293; conditions = 10 µM; endpoint = inhibition; result = 77%
SMILES = COc1ccc(F)cc1C(=O)NCc1ccc(-c2nn([C@@H](C)C(F)(F)F)c(N)c2C(N)=O)cc1; target or system = TEC (Homo sapiens, UniProt P42680); assay = probe binding, competitive chemoproteomics; system = live human PBMCs; conditions = 1 µM; endpoint = inhibition; result = > 50%
SMILES = COc1cc(C(=O)NS(=O)(=O)c2ccccc2C)ccc1Cc1cn(C)c2ccc(NC(=O)OC3CCCC3)cc12; target or system = Volume-regulated anion channel subunit LRRC8C, part LRRC8A IL1 chimera (LRRC8C, Homo sapiens, UniProt Q8TDW0, E6A); assay = ion current, inhibitor, whole-cell patch clamp; system = HCT LRRC8-/- cells; conditions = 0.3 µM, +100 mV; endpoint = inhibition; result = 47.3% and 42.1% and 24.5% and 76.2%
SMILES = Cc1ccc2c(c1)sc(-c1ccc(N(C)C)cc1)[n+]2C; target or system = Trypanosoma cruzi; assay = reporter translation, Renilla luciferase mRNA translation; system = cell-free extract; conditions = 40 µM; how to read = baseline: DMSO; endpoint = inhibition; result = 14.1%
SMILES = CNC(=O)c1ccc(-c2cnc3ncc(Cc4ccc5ncccc5c4)n3n2)cc1F; assay = measured: Vomiting; system = cancer patients; conditions = oral, dose not given, dose escalation, grade 3-4; endpoint = patients with adverse event; result = 3%
SMILES = CCCCCCNc1nc(NC2CCN(C)CC2)c2cc(OC)c(OC)cc2n1; target or system = Toxoplasma gondii; assay = parasite growth; system = HFF, bradyzoite, glutamine-induced; endpoint = EC90; result = 3.56 µM
SMILES = OO; target or system = Histone acetyltransferase RTT109, with Vps75 (Saccharomyces cerevisiae, UniProt Q07794); assay = enzyme activity, inhibitor; conditions = 62.5 µM, Rtt109-Vps75 complex, 1 mM DTT, added: [3H]acetyl-CoA; endpoint = inhibition; result = 0 ± 10%

For quick reference, copied from above:
SMILES = CCc1oc2ccccc2c1C(=O)c1cc(Br)c(O)c(Br)c1; target or system = SLC22A12 (Homo sapiens, UniProt Q96S37, F360A); assay = urate uptake; system = HEK293T; conditions = 0.5 µM, 10 min, 37 °C, added: 200 µM [14C]urate; endpoint = inhibition; result = 45% and 100% and 55% and 44.7% and 95.9%
SMILES = CCCN(CCC)CCc1cccc2c1CC(=O)N2; target or system = Voltage-dependent P/Q-type calcium channel subunit alpha-1A; assay = ion current, antagonist; system = HEK293; conditions = 10 µM; endpoint = inhibition; result = 5%
SMILES = Cc1cc(-c2ccnc3[nH]cc(F)c23)cc(F)c1[C@@]1(O)[C@H](C)CN(C(=O)CN)C[C@@H]1C; target or system = STK38L (Homo sapiens, UniProt Q9Y2H1); assay = ATP probe binding, KiNativ, measured: Lys2 site; system = HEK293T cell lysate; conditions = 1 µM; endpoint = inhibition; result = 1.2%
SMILES = Cc1cc(CN)cc(C)c1NC(=O)c1ccc(-c2cc(Cl)ccc2Cl)o1; target or system = Toxoplasma gondii; assay = parasite growth; system = HFF, bradyzoite, glutamine-induced; endpoint = EC90; result = 21.6 µM
